Assay results from different studies.
Numbered parts are unrelated; each lists some results of a single study.

Study 1
Target: RNA binding protein fox-1 homolog 2, RRM domain, GST-SBP tag (RBFOX2, Homo sapiens, UniProt O43251-10, residues 100-194)
Technique: RNA Bind-n-Seq
Molecule type: RNA
Medium: in vitro
Tested at: 365 nM
Setting: natural RNA segment, single round, ends assumed
Reference: no-protein control
Direction: higher = stronger binding
Measurement: RBNS enrichment (R)
Shared flanks, not repeated: GGGAGUUCUACAGUCCGACGAUC … UGGAAUUCUCGGGUGCCAA
Residues (chain): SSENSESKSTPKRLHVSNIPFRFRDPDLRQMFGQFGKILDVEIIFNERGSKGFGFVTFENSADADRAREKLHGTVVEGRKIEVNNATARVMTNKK
UCCAGCUCUGGAGUGGGGUGCUAUUCUGGCAGUAUCUGGAACUUGGCCUACAGCUUCCUCUGCAGGGUCUAAACAGGGAAGGCACGUGUGGAGGAGUGGUCCCAGUGACA: 0.623
AUAUCAGACUCCACAUAUGGCCUUAUUAAUUGCUGUAGGAAGCAUCUUGGGACUGGAAGAUAUGAUUCCCUUUCCAAUCAUCCCUUCUCUCUCCUGUCUAUACAUACACA: 0.607
UUCUCGUGUUCUUUUGUUUCCGAGUGCUUAUAAUGCAUGUAGACCUUGUUCUUCGUGAUCCUGCUAUGUGAUUGGUCACAGAGUUUUAGAUUCAGGAAAGAAUGUUACCA: 1.37
CACGUGUGUGUGUGUGUGUGUAAAGGCUAUGCAGCCAAAAUACCAUCUGGCCAGACGGGCCCACCCAUGACUGUCUCGUCUCGUUCUUUUCAACCAGGAGGAAUAUGCUG: 0.27
CAGAGCACCUGAUUGGCCCAAAAGACCAGCAAGACCCUUGUCUACUCUGCAGAUGGUGAAGCCUUUGAGGCAGCCUCUUGCUUUCUCCUGUGGGUCCCUUGUGCCCACAG: 0.221
GCUAGAUGCACCAAGCAUGGCCCAAAUUGGUUCUUUUUUAAAUCCCAUGGGGGAAGUGCAGGCUCCUUCCUGUGGUGCCUCUUUAUAGCCUCACCACCAUGCUAACACUG: 1.04
CAUCCUGUAUAAGCACUGAGAAAGCAAAAACAAUAACACUAAAAUUUUAGGCACUCUUAAACCAUCUGCCUCUAAAAGCAUUGGAUGUAGCAUUGCGCAAUUAGGUUGUU: 1.37
AAAAUAACUUAAAUGCCCCUCCCCGGCCGCCUCCAAUUUCCAUUGGUUUCCAUGUGGCAAGAUCCCCGAGAAAACACAGCUAGGUGACUUUCUGACAAGCUGAAGCUAAU: 0.768
UUCUCCCCUGCCCUUCCUCCUGAUGGAGUGUGCAGACAGCCAUGCGUGGCCACGGGGGCAGUGUGAGGACCUCCCUGUCUCCCGGCUCCCCUCCCAGGGGAGCCAGCUGC: 0.215
GAGGACAGAGGGGAGGGACUUGGUGUGAUAGACAUAUAACAGUCACUUCUUGAAGAAGUGCAGUUGUAAAUAAGCCAUGUAAAAUGCCUUUUUAAAGUUUAAUUUUAUAG: 0.927
UGAAUGUCUCAAUUUAAAACUUGAAGCUCUUUAGACCAAUAGACUGGUGAGAGGAGAAAGGAGCUUAUCCCCCAGACCCUGCUUUAUACCAUUCACAUCCCAGGGCUGUG: 0.478
GAGGAAUGGAGCUUGUUUCUGUGACCCAGGAGAACUUAGUGCAAGACUACAGGAGUUAACAGAUGGCCAGCUCCUUAUUUUUUAAUGUAGAAUAACUCCUGAGUUUAUAU: 0.425

Study 2
Target: Ras GTPase-activating protein-binding protein 1, RRM domain (G3BP1, Homo sapiens, UniProt Q13283)
Sequence of UniProt Q13283 (whole entry, looked up): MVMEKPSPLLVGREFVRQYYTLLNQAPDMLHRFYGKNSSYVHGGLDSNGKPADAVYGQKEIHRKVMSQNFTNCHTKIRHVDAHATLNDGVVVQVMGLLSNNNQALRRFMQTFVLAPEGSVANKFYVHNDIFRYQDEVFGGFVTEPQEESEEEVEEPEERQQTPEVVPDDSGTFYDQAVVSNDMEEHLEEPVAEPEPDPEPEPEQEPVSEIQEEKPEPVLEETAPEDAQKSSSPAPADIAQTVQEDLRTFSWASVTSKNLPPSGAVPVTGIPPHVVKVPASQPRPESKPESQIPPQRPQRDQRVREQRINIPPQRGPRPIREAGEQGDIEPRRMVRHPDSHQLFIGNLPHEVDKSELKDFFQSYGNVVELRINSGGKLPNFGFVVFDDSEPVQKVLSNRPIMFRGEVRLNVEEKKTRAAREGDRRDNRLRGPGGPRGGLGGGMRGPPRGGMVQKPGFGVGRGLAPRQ
Technique: RNA Bind-n-Seq
Molecule type: RNA
Medium: in vitro
Tested at: 1 µM
Setting: whole 134-nt RNA, ends assumed
With: 150 mM KCl
Reference: input library
Direction: higher = stronger binding
Measurement: log2 enrichment
Shared flanks, not repeated: GGGAGUUCUACAGUCCGACGAUC … UGGAAUUCUCGGGUGUCAAGG
GUCCUGUGCUACACAUCGUAUGUACCGAAUCGGGGUUUUUUUGGGGAGGGGAAAGGGGAAAGUAUUAUGUUACGCCGUUCGGAUCUGCAC: 1.14
UGUGCUACACAUCGUAUGUACCGAAUCGGGGAAAAAAAGGGAAAAAAAGGGGAAAAAAAGGGGAAAGUAUUAUGUUACGCCGUUCGGAUC: 0.0491
GCAGGAAGUAAAAACAAAUGGAAAUGCUUCGGAUAGUGGCAGGGGGGGGGGUUGCUAAGGAAAGGGUGGGAUGGGAGUGGGUAAAGAGUU: 0.772
UGGCCCUGGUGGCAUGCGGGGAGGAAGAGGUGGCCUCAUGGAUCGUGGUGGUCCCGGUGGAAUGCUCAGAGGUGGCCGUGGUGGAGACAG: 0.881
CACAGACAACACGCACCCACAAAGACACAGAGGGAAGGGGUUGGGAUGGGGACAGGGUGCACAGCAGGGCGGGGUAGGACCCCAGCCCCU: -0.21
UCCUGUGCUACACAUCGUAUGUACCGAAUCGGGGUUUUUGGGGUUUUUGGGGUUUUUGGAAAGUAUUAUGUUACGCCGUUCGGAUCUGCA: -0.0885
CAAGUCCUGUGCUACACAUCGUAUGUACCGAAUCGGGAGGGUUUUUGGGAAAGGGAAAGUAUUAUGUUACGCCGUUCGGAUCUGCACUUC: 0.703
CACAGACAACACGCACCCACACAGACACAGAGGGAAUGGGUUGGGAUGGGGACAGGGUGCACAGCAGGGCGGGGUAGGACCCCAGCCCCU: 0.0375
GCAGGAAGUAAAAACAAAUGGAAAUGCUUCGGAUAGUGGCAGGGGUGGGGGUGGCUAAGGAAAGGGUGGGAUGGGAGUGGGUAAAGAGUU: 0.851
CAUCAAAAUAGCUACAAACCAUACUAAAUUAUUCCAUUUGCAACUUAUCCCCAACAGGUAUGUUCUAAAAAUAGUUUUUUUUUGUCAUUU: -0.085
AAGUCCUGUGCUACACAUCGUAUGUACCGAAUCGGCCCCCGGCCCCCGGCCCCCGGGAAAGUAUUAUGUUACGCCGUUCGGAUCUGCACU: -0.68
UUUCAAAGCCAAAGGGCCUUGUGACGCCCCUCUUGCCCACCUCCCUCCACACCGUGUCCUCCCCUAUAUGACAAUCAAUGUGACCUCUCU: 0.0784
AAGUCCUGUGCUACACAUCGUAUGUACCGAAUCGGUUUUUUUGGUGGUUUUUUUGGAAAGUAUUAUGUUACGCCGUUCGGAUCUGCACUU: -0.474
AGUCCUGUGCUACACAUCGUAUGUACCGAAUCAAAUUUAAAUUUUUUUAAAUUUAAAAAAGUAUUAUGUUACGCCGUUCGGAUCUGCACU: -0.984

Study 3
Organism: Saccharomyces cerevisiae
Observed: cell growth
Technique: competitive growth deep sequencing
Molecule type: peptide
Setting: peptide tiling library
With: cyclin E2-Cln2 fusion
Direction: direction not given
Measurement: enrichment score
NRLLKLFTRCLTPLVP: -0.963
SGYLTDENEVGFRG: 0.56
VRDLSYRLVFLACCVA: -0.32
RNRGPKLNAMLRLGVL: -1.27
VEEEFFALRKRTPSAG: 0.402
ELGMEHCEKFEISETS: 1.24
DSDSDSEGGAAGGEAD: 2.62
RRRRLLFWDKETQI: -2.01
EAAPPTQEAQGETEPT: 0.692
AIRKMREDRWAVIAKM: -0.566
TQERKQIHCLSEDELS: 0.066

Study 4
Target: RING finger protein unkempt homolog, zinc fingers 1-6, SBP tag (UNK, Homo sapiens, UniProt Q9C0B0, residues 30-357)
Sequence of UniProt Q9C0B0 (30-357, looked up): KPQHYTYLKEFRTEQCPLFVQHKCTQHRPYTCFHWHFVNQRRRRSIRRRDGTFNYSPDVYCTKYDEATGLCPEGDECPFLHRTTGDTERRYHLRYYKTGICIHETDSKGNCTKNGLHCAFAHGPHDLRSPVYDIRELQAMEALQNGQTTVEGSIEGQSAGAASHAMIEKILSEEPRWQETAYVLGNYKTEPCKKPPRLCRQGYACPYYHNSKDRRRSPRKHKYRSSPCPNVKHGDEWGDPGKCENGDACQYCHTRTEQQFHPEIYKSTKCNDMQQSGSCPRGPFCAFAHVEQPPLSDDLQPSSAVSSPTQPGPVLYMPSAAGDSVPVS
Technique: RNA Bind-n-Seq
Molecule type: RNA
Medium: in vitro
Tested at: 100 nM
Setting: RNA with constant flanks, vertebrate orthologous sites, ends assumed
Reference: input RNA pool
Direction: higher = stronger binding
Measurement: bound/input enrichment
Shared flanks, not repeated: GGGAGUUCUACAGUCCGACGAUC … CAACAGAGGAUUGAGCAUCA
AGAUUUGGACCUUGGAGCAGAAGCAGCAGUGAGCAACAGUAAAGCAAGCUUGUAAAAUUAUAGCCCCAUGCAGCUGCACAACCACAGAACGGUGAUGCAACAGCUACAUGCAAGUCUUUA: 0.404 ratio
UUUUAAAGCCAUUUUUCAUGUUUCCUGUAAAUAAAGGAUAAUCAUUUUUAUUUUGUUUUCAAGUGCUGUUUUAACAAUGUGGAUAGACCAUAAAUGUACUUGCUGAAUUCAUUCAUUUUU: 0.366 ratio
UCAACUCAGGUUUUAUUUAUUUUGAAAUCAUCGGUUAUAUAAACCUAAUUUAUUACCAAAUAUGAUGGUCUUUAAAAAUAUUUUUACUGUUGAAACUUACGUAGGUAUUUGAUAUCCUUU: 0.0763 ratio
UACAAUCUUACACUUAAACUGGUAUUUUCAAACAAUAGGAAAUUUUCUUUUUUUACAGAUUAGUGUAUCUGGUUUCUACAUGGAAGACUAAACUGAUGCUUAUUGCUAAAUGUGGUCUUU: 0.369 ratio
AGGACUUCUAAUAGGCAAAUUCAGGGAGAGAGAGGCUUCAGGGAAUAUGAAUUUAUAUAGUAGUGAUUAUGAAGUAUAACCUUGAUAUAAUGGAAUGAUUUGGGGGAGUGAUGACAACUU: 4.78 ratio
CUUUAUGGGCCUCGAAGAGUUGAAAUAAUGGAAGAAGAAAAUGAACAGUAAUCUUCAAUUUAGUAUUUAUGCCUAGGUGUGAUAUAAAUUUUUUUGUUAUCAUUUCUAUAAUCUUGAGCU: 1.23 ratio
UAUAAUUAUGAAAAUCUAAAGGAUUUUUAAUGUUUAAUUUCCCCUAGCAUCUCUAUUAAGACCUCUUUUUUCCAGGCAGAUCAUUCAGAGUGUGCGAGUGUGUGUGCACAUGUUACAAAG: 1.17 ratio
GGGACGCUUUGAUGUAAAAAUUGAAGUUAAGAGCUGAUCACAAGCACACAUCUUUCUCACUAGCCAUUUAAAAAAAGUAAAAAAGAUACAAAAACCUACUAGUCUUGAACAAACUGUCAU: 0.911 ratio
CCUCCAACAGGCAAAUUCAGGAGAGAGAUAGGCUUCAGGGAAUAAAAACUUAUUUAAUAGUGGUGAUUGCAAAGUAUAAAUUUGAUAUAAUUGAGUAAUUUGUGAGGGGUGAUGAUAAAU: 1.07 ratio
UAUUAGUGUCAUACCAGCAUAUUAACCUCUCGUCUGUGCACAGCUUCAAAUGUUACCGUCUAGUUAGAUUUUUAUUUAAAAUAUGAAAGACUGCUUUUCCCAAGACGUUUUUUAAAAACA: 1.94 ratio
GGGUUUGGGGUAGAAGGGAGGGAGGGGGCAGGACAGUGUGGAAUCUCUAGGGUGUAUGGGUAGGUAGGGGGCACAGUUAGUUCUAAGUGGGCCUUUAUGCUAAAAGCCUCUGGGGAUAUC: 0.978 ratio

Some of these lines once more (study 1):
CACGUGUGUGUGUGUGUGUGUAAAGGCUAUGCAGCCAAAAUACCAUCUGGCCAGACGGGCCCACCCAUGACUGUCUCGUCUCGUUCUUUUCAACCAGGAGGAAUAUGCUG: 0.27
CAGAGCACCUGAUUGGCCCAAAAGACCAGCAAGACCCUUGUCUACUCUGCAGAUGGUGAAGCCUUUGAGGCAGCCUCUUGCUUUCUCCUGUGGGUCCCUUGUGCCCACAG: 0.221
GCUAGAUGCACCAAGCAUGGCCCAAAUUGGUUCUUUUUUAAAUCCCAUGGGGGAAGUGCAGGCUCCUUCCUGUGGUGCCUCUUUAUAGCCUCACCACCAUGCUAACACUG: 1.04
CAUCCUGUAUAAGCACUGAGAAAGCAAAAACAAUAACACUAAAAUUUUAGGCACUCUUAAACCAUCUGCCUCUAAAAGCAUUGGAUGUAGCAUUGCGCAAUUAGGUUGUU: 1.37
AAAAUAACUUAAAUGCCCCUCCCCGGCCGCCUCCAAUUUCCAUUGGUUUCCAUGUGGCAAGAUCCCCGAGAAAACACAGCUAGGUGACUUUCUGACAAGCUGAAGCUAAU: 0.768
UUCUCCCCUGCCCUUCCUCCUGAUGGAGUGUGCAGACAGCCAUGCGUGGCCACGGGGGCAGUGUGAGGACCUCCCUGUCUCCCGGCUCCCCUCCCAGGGGAGCCAGCUGC: 0.215
GAGGACAGAGGGGAGGGACUUGGUGUGAUAGACAUAUAACAGUCACUUCUUGAAGAAGUGCAGUUGUAAAUAAGCCAUGUAAAAUGCCUUUUUAAAGUUUAAUUUUAUAG: 0.927
UGAAUGUCUCAAUUUAAAACUUGAAGCUCUUUAGACCAAUAGACUGGUGAGAGGAGAAAGGAGCUUAUCCCCCAGACCCUGCUUUAUACCAUUCACAUCCCAGGGCUGUG: 0.478
